Results from different studies.
Protocols differ between the studies behind these lines. Numbers after ± are the reported error. Non-standard residues stand in square brackets, D forms with d. No end group written: not given here.

| Substance | test | system | setting | scale | measurement | value |
| --- | --- | --- | --- | --- | --- | --- |
| CC(C)C[C@H](NC(=O)[C@H](CC(C)C)NC(=O)[C@@H](N)CCCNC(=N)N)C(=O)N[C@@H](CCCNC(=N)N)C(N)=O | RP-HPLC, C18 column | – | – | higher is more hydrophobic | retention time | 2.9 min |
| CCCCCCCCCCCCCCCCCC(=O)NCCCC[C@H](NC(=O)CCCCCCCCCCCCCCCCC)C(=O)N[C@@H](CCCCN)C(=O)N[C@@H](CCCCN)C(=O)N[C@@H](CCCCN)C(=O)N[C@@H](CCCCN)C(=O)N[C@@H](CCCCN)C(N)=O | RP-HPLC C18 | – | – | – | retention time | 27.8 min |
| CC(C)(C)O[C@H]([C@H](NC(=O)OCC1c2ccccc2-c2ccccc21)C(=O)O)C(F)(F)F | reversed-phase HPLC | – | – | reference: fluorinated over non-fluorinated analogue | retention time difference | 22.1 min |
| N=C(N)NCCC[C@H](NC(=O)[C@H](Cc1c[nH]c2ccccc12)NC(=O)[C@H](CCC(N)=O)NC(=O)[C@H](Cc1c[nH]c2ccccc12)NC(=O)[C@H](CCCNC(=N)N)NC(=O)[C@H](Cc1c[nH]c2ccccc12)NC(=O)[C@H](CCC(N)=O)NC(=O)[C@H](Cc1c[nH]c2ccccc12)NC(=O)[C@@H](N)CCCNC(=N)N)C(N)=O | RP-HPLC, C18 column | – | water/acetonitrile gradient with TFA | – | retention time | 6.4 min |
| C[C@H](NC(=O)[C@H](Cc1c[nH]c2ccccc12)NC(=O)[C@H](CCC(N)=O)NC(=O)[C@H](Cc1c[nH]c2ccccc12)NC(=O)[C@@H](N)CCCNC(=N)N)C(=O)N[C@@H](Cc1c[nH]c2ccccc12)C(=O)N[C@@H](CCC(N)=O)C(=O)N[C@@H](Cc1c[nH]c2ccccc12)C(=O)N[C@@H](CCCNC(=N)N)C(N)=O | RP-HPLC C18 | – | hydrophobicity measure | – | retention time | 6.7 min |
| Trp-[Phe(4-F)] (Trp-4-fluoro-Phe; Phe(4-F) = N[C@@H](Cc1ccc(F)cc1)C(=O)O) | RP-HPLC C18 | – | – | reference: non-fluorinated analogue | retention time shift | 6.13 min |
| C[C@H](NC(=O)[C@H](Cc1c[nH]c2ccccc12)NC(=O)[C@H](CCC(N)=O)NC(=O)[C@H](Cc1c[nH]c2ccccc12)NC(=O)[C@H](CCCNC(=N)N)NC(=O)[C@H](Cc1c[nH]c2ccccc12)NC(=O)[C@H](CCC(N)=O)NC(=O)[C@H](Cc1c[nH]c2ccccc12)NC(=O)[C@@H](N)CCCNC(=N)N)C(N)=O | RP-HPLC C18 | – | hydrophobicity measure | – | retention time | 6.7 min |
| NC(=O)CC[C@H](NC(=O)[C@H](CCC(N)=O)NC(=O)[C@H](CC(N)=O)NC(=O)[C@@H](N)CC(N)=O)C(=O)N[C@@H](CC(N)=O)C(=O)N[C@@H](Cc1ccc(O)cc1)C(=O)O | analytical RP-HPLC | C18 column | – | – | retention time | ~10 min |
| CC(=O)N[C@H](CCCCN)C(=O)N[C@H](CC(C)C)C(=O)N[C@@H](CCN)C(=O)N[C@H](CO)C(=O)N[C@H](CC(C)C)C(=O)N[C@H](CC(C)C)C(=O)N[C@@H](CCN)C(=O)N[C@@H](C(=O)N[C@H](CC(C)C)C(=O)N[C@H](CO)C(=O)N[C@@H](CCN)C(=O)N[C@H](C)C(=O)N[C@H](CCCCN)C(=O)N[C@H](C)C(=O)N[C@H](C)C(=O)N[C@H](CCCCN)C(=O)N[C@H](CC(C)C)C(=O)N[C@@H](CCN)C(=O)N[C@@H](C(=O)N[C@H](CC(C)C)C(=O)N[C@H](CC(C)C)C(=O)N[C@@H](CCN)C(=O)N[C@H](C)C(=O)N[C@H](CC(C)C)C(=O)N[C@H](CO)C(=O)N[C@@H](CCN)C(N)=O)[C@H](C)O)[C@H](C)O | RP-HPLC C8 | – | pH 2, 25 °C, hydrophobicity measure | – | retention time | 116 min |
| CC(=O)N[C@@H](Cc1ccccc1)C(=O)N[C@@H](CCCCN)C(=O)N[C@@H](Cc1ccccc1)C(=O)N[C@@H](CCC(=O)O)C(=O)N[C@@H](Cc1ccccc1)C(=O)N[C@@H](CCCCN)C(=O)N[C@@H](Cc1ccccc1)C(=O)N[C@@H](CCC(=O)O)C(N)=O | reverse-phase HPLC C18 | – | – | – | retention time | 12.5 min |
| CCCC[C@H](NC(=O)OCC1c2ccccc2-c2ccccc21)C(=O)O | reversed-phase HPLC | – | – | reference: fluorinated over non-fluorinated analogue | retention time difference | 13.8 min |
| CC(=O)N[C@@H](Cc1c[nH]c2ccccc12)C(=O)N[C@@H](CCCCN)C(=O)N[C@@H](Cc1c[nH]c2ccccc12)C(=O)N[C@@H](CCC(=O)O)C(=O)N[C@@H](Cc1c[nH]c2ccccc12)C(=O)N[C@@H](CCCCN)C(=O)N[C@@H](Cc1c[nH]c2ccccc12)C(=O)N[C@@H](CCC(=O)O)C(N)=O | reverse-phase HPLC C18 | – | – | – | retention time | 12.8 min |
| Trp-Phe | RP-HPLC C18 | – | – | reference: non-fluorinated analogue | retention time shift | 6.13 min |
| C[C@H](NC(=O)[C@H](CCC(N)=O)NC(=O)[C@H](Cc1c[nH]c2ccccc12)NC(=O)[C@H](CCCNC(=N)N)NC(=O)[C@H](Cc1c[nH]c2ccccc12)NC(=O)[C@H](CCC(N)=O)NC(=O)[C@H](Cc1c[nH]c2ccccc12)NC(=O)[C@@H](N)CCCNC(=N)N)C(=O)N[C@@H](CCCNC(=N)N)C(N)=O | RP-HPLC C18 | – | hydrophobicity measure | – | retention time | 5.7 min |
| CC[C@H](C)C(=O)O[C@H]1C[C@H](O)C=C2C=C[C@H](C)[C@H](CC[C@@H](O)C[C@@H](O)CC(=O)O)[C@H]21 | – | perfused human placental lobule | 50 ng/mL, 4 h, fetal-to-maternal | reference: initial donor concentration | retention by placental lobule | 20 ± 4% |
| C[C@H](OC(C)(C)C)[C@H](NC(=O)OCC1c2ccccc2-c2ccccc21)C(=O)O | reversed-phase HPLC | – | – | reference: fluorinated over non-fluorinated analogue | retention time difference | 22.1 min |
